Experimental data gathered from unrelated publications.
Protocols differ between the studies behind these lines. Several values in a cell are separate wells, animals, samples, runs or records. ± marks the error that the study gave.

| SMILES | assay | system | conditions | how to read | AUC(0-t) |
| --- | --- | --- | --- | --- | --- |
| CCO | – | human, breath | 0.5 g/kg, added: 10 mg co-dosed drug | – | 151 ± 21.5 h·mg/100 mL |
| Cc1cc(-c2nnc(N)nc2-c2ccc(F)cc2)cc(Cl)n1 | – | human patients, plasma | oral, 100 mg nanosuspension once daily, multiple doses, arithmetic mean | – | 4850 ng·h/mL |
| CO[C@H]1C[C@@H]2CC[C@@H](C)[C@@](O)(O2)C(=O)C(=O)N2CCCC[C@H]2C(=O)O[C@H]([C@H](C)C[C@@H]2CC[C@@H](OC(=O)NCCOCCOCCOCCOCCOCCOCCOCCOCCC(=O)N3CCc4cc(Cn5nc(-c6ccc7oc(N)nc7c6)c6c(N)ncnc65)ccc4C3)[C@H](OC)C2)C[C@@H](O)[C@H](C)/C=C(\C)[C@@H](O)[C@@H](OC)C(=O)[C@H](C)C[C@H](C)/C=C/C=C/C=C/1C | – | human, plasma | intravenous, 6 mg, cycle 1 day 15, arithmetic mean | – | 441 ng·h/mL |
| C#C[C@]1(CO)O[C@@H](n2cnc3c(N)nc(F)nc32)C[C@@H]1O | – | human, plasma | oral, 30 mg, single dose, geometric mean | – | 3.4 µM·h |
| CCN1CCN(Cc2ccc(Nc3ncc(F)c(-c4cc(F)c5nc6n(c5c4)[C@H](C)CCC6)n3)nc2)CC1 | – | human, plasma | 100 mg single dose, mean | – | 4620 ng·h/mL |
| C=CCn1c(=O)c2cnc(Nc3ccc(N4CCN(C)CC4)cc3)nc2n1-c1cccc(C(C)(C)O)n1 | – | human, plasma | oral, 125 mg twice daily, day -5 lead-in, geometric mean, monotherapy | – | 4.98 µM·h |
| Cc1cc(C)c(CNC(=O)c2cc(Cl)c3c(c2C)O[C@@](C)([C@H]2CC[C@H](N(C)C)CC2)O3)c(=O)[nH]1 | mean | healthy male humans, plasma | oral, 25 mg, day 12, added: fluconazole | – | 1070 ng·h/mL |
| Cl.[2H]C([2H])([2H])CC(=O)c1cnc(NC(=O)C2CC2)cc1Nc1cccc(-c2ncn(C([2H])([2H])[2H])n2)c1OC | geometric mean | human | oral, 5 mg single dose, fasted, liquid | – | 326 ng·h/mL |
| Cn1cc(-c2cn3nccc3c(-c3cnn([C@]4(CC#N)C[C@@H](C#N)C4)c3)n2)cn1 | – | healthy humans fasted, plasma | 3 mg single dose, geometric mean | – | 40 ng·h/mL |
| C[C@H]1CN(C(=O)CC#N)[C@]12CCN(c1ncnc3[nH]ccc13)C2 | – | healthy human, plasma | oral, 6 mg single, mean | – | 205 ng·h/mL |
| CN[C@@H](C)C(=O)N[C@H]1CN(S(=O)(=O)c2cccc(S(=O)(=O)N3CC[C@H]4CC[C@@H](C(=O)NC(c5ccccc5)c5ccccc5)N4C(=O)[C@@H](NC(=O)[C@H](C)NC)C3)c2)CC[C@H]2CC[C@@H](C(=O)NC(c3ccccc3)c3ccccc3)N2C1=O | LC-MS/MS, noncompartmental | human, plasma | 30 mg, cycle 1 day 1 | – | 952 ± 500 ng·h/mL |
| CNC(=O)n1ccc2cc(Oc3ccnc(NC(=O)c4ccc(C5CCN(CCO)CC5)cc4)c3)c(OCCOC)cc21 | – | healthy human, plasma | oral, 35 mg, fasted | – | 126 ng·h/mL |
| CCCCOc1nc(N)c2c(n1)N(Cc1cccc(CN3CCCC3)c1)CC(=O)N2 | – | human | oral, 2 mg, mean | – | 13.5 ng·h/mL |
| N#CN1C[C@H](n2nc(-c3ccc(Oc4ccc(Cl)cn4)cc3)c(C(N)=O)c2N)CCC12CC2 | – | human, fed, plasma | oral, 600 mg | – | 19400 ± 6500 ng·h/mL |
| COc1ccc([C@@H](O)c2cc(-c3ncnc4cc(N5CCOCC5)ccc34)c(F)cc2Cl)nn1 | – | healthy human volunteers, plasma | oral, 100 mg single dose, tablet, fed high-fat, geometric mean | – | 1250 ng·h/mL |
| C=CC(=O)N(C)CCOc1c(N)ncnc1-c1cc(F)cc(NC(=O)c2ccc(C3CC3)cc2F)c1C | – | human, whole blood | oral, 100 mg, single ascending dose | – | 269 ng·h/mL |
| CO[C@@H]1[C@H](OC(=O)N2CC(CCN3CCOCC3)C2)CC[C@]2(CO2)[C@H]1[C@@]1(C)O[C@@H]1CC=C(C)C | – | humans, plasma | subcutaneous, 0.2 mg twice weekly, first dose | – | 0.1 ± 0.06 ng·h/mL |
| C[C@H]1[C@@H](O)O[C@@H]2O[C@@]3(C)CC[C@H]4[C@H](C)CC[C@@H]1[C@@]24OO3 | – | human, both sexes, plasma | oral, dose not given, fixed-dose combination | – | 1310 ng·h/mL |
| CO[C@H]1CC[C@H](N2C(=O)CNc3ncc(-c4ccc(C(C)(C)O)nc4)nc32)CC1 | – | human, plasma | oral, 15 mg, day -1, geometric mean | – | 347 ng·h/mL |
| NC[C@@]1(CC(=O)O)[C@@H]2CC[C@H]3C[C@@H]2[C@@H]1C3 | – | human, moderately renal impairment, plasma | dose not given, geometric least squares mean | – | 3860 ng·h/mL |
| O=C(O)CCC(=O)O.[2H]C([2H])([2H])Oc1cc(C)c2[nH]ccc2c1CN1CC[C@@H](C2CC2)C[C@H]1c1ccc(C(=O)O)cc1 | LC-MS/MS, geometric mean | human, plasma | 50 mg, single dose, fasting | – | 31700 ng·h/mL |
| CN[C@@H](C)C(=O)N[C@H]1CN(S(=O)(=O)c2cccc(S(=O)(=O)N3CC[C@H]4CC[C@@H](C(=O)NC(c5ccccc5)c5ccccc5)N4C(=O)[C@@H](NC(=O)[C@H](C)NC)C3)c2)CC[C@H]2CC[C@@H](C(=O)NC(c3ccccc3)c3ccccc3)N2C1=O | LC-MS/MS | human, advanced solid tumours, plasma | intravenous, 12 mg weekly, day 1 | – | 207 ± 20.4 ng·h/mL |
| COC(=O)c1ccc2c(c1)NC(=O)/C2=C(\Nc1ccc(N(C)C(=O)CN2CCN(C)CC2)cc1)c1ccccc1 | – | healthy human | oral, 150 mg single, alone | arithmetic mean | 150 ng·h/mL |
| CCNCc1cc(Nc2ccnc3cc(Cl)ccc23)ccc1O | – | human, both sexes, plasma | oral, dose not given, fixed-dose combination | – | 27000 ng·h/mL |
| CNC(=O)c1ccc(-c2cnc3ncc(Cc4ccc5ncccc5c4)n3n2)cc1F | – | human severe hepatic impairment NCI | oral, 200 mg single dose, geometric mean | – | 5300 ng·h/mL |
| CN(CC#N)C(=O)C[C@H](Nc1nc2ccccc2[nH]1)c1cccc(C(F)(F)F)c1 | – | human | intravenous infusion, 1.5 mg/kg, 1 mg/mL formulation | – | 7290 ± 1570 ng·h/mL |
| Cc1[nH]c(/C=C2\C(=O)Nc3ccc(F)cc32)c(C)c1C(=O)N[C@H]1CCN(C(=O)N(C)C)C1 | – | human patients, plasma | oral, 150 mg single dose, added: everolimus 5 mg | – | 4420 ± 2760 ng·h/mL |
| CCCn1cc(C)c2c(=O)[nH]c(-c3cc(S(=O)(=O)N4CCN(CC)CC4)ccc3OCC)nc21 | – | human, plasma | oral, 100 mg | – | 202 ± 117 ng·h/mL |
| NC1(C(=O)N[C@@H](CCO)c2ccc(Cl)cc2)CCN(c2nc[nH]c3nccc2-3)CC1 | – | human, plasma | dose not given | – | 2660 ng·h/mL and 1770 ng·h/mL and 2100 ng·h/mL |
| CN1CCC(COc2cnc(-c3cccc(Cn4nc(-c5cccc(C#N)c5)ccc4=O)c3)nc2)CC1 | – | human | dose not given, single dose, geometric mean, added: itraconazole 200 mg once daily | – | 21400 ng·h/mL |

Repeated from above:
| SMILES | assay | system | conditions | how to read | AUC(0-t) |
| --- | --- | --- | --- | --- | --- |
| C=CC(=O)N(C)CCOc1c(N)ncnc1-c1cc(F)cc(NC(=O)c2ccc(C3CC3)cc2F)c1C | – | human, whole blood | oral, 100 mg, single ascending dose | – | 269 ng·h/mL |
| Cn1cc(-c2cn3nccc3c(-c3cnn([C@]4(CC#N)C[C@@H](C#N)C4)c3)n2)cn1 | – | healthy humans fasted, plasma | 3 mg single dose, geometric mean | – | 40 ng·h/mL |
| CCNCc1cc(Nc2ccnc3cc(Cl)ccc23)ccc1O | – | human, both sexes, plasma | oral, dose not given, fixed-dose combination | – | 27000 ng·h/mL |
